# Experimental data of several laboratories.
# Lines come from different studies, so protocols differ. “And” joins repeats or separate records; there may be more than shown. ± gives the spread as reported.
SMILES,organism,assay,test system,conditions,how to read,measurement,value
CC(C)SC(SC(C)C)c1ccc(OCCNS(=O)(=O)c2cccc(Br)c2)c(Cl)c1,Tobacco mosaic virus,inactivation activity,plant in vivo,,,EC50,262.9 ± 1.6 µg/mL
CCOC(=O)C1(Cc2ccc(C#N)cc2F)Oc2cc(F)ccc2N(Cc2ccc(C#N)cc2F)C1=O (stereo not drawn),Eclipta prostrata,"fresh weight, greenhouse postemergence",,"postemergence, 150 g ai/ha, 21 days",,inhibition,56.4 ± 1.9%
CC[C@H](C)[C@@H]1NC(=O)[C@@H](CCCNC(=N)N)NC(=O)[C@@H](NC(=O)[C@@H](CC(C)C)NC(=O)[C@H](C)NC(=O)[C@H](C)NC(=O)[C@@H]2CCCN2C(=O)[C@@H](CC(C)C)NC(=O)[C@@H](NC(=O)[C@@H](CCCNC(=N)N)NC(=O)[C@@H](CC(C)C)NC(=O)[C@@H](CC(C)C)NC(=O)[C@@H](NC(=O)[C@@H](CCCNC(=N)N)NC(=O)[C@@H](CC(C)C)NC(=O)[C@@H](NC(=O)[C@@H](NC(=O)CNC(=O)[C@@H](CC(C)C)NC(=O)[C@@H](N)Cc2ccccc2)[C@@H](C)O)C(C)C)C(C)C)C(C)C)CSSC[C@@H](C(=O)O)NC(=O)[C@@H](CCCNC(=N)N)NC(=O)[C@@H](CCCNC(=N)N)NC(=O)[C@H](Cc2ccccc2)NC1=O,Streptococcus pyogenes,,Galleria mellonella larvae,"16 mg/kg, titanium implant biofilm infection",,survival rate,75%
O=C(NNc1ccccc1)c1nnc(C23CC4CC(CC(C4)C2)C3)o1,Sclerotinia sclerotiorum,microbial growth,,50 µg/mL,,inhibition,76.3%
COc1cc(C(SC(C)C)SC(C)C)ccc1OCCNS(=O)(=O)c1ccccc1C(F)(F)F,Tobacco mosaic virus,protective activity,plant in vivo,,,EC50,1063 ± 1.8 µg/mL
CCOC(=O)C1(Cc2ccc(F)cc2)Oc2cc(F)ccc2N(Cc2ccc(F)cc2)C1=O (stereo not drawn),Echinochloa crus-galli,"fresh weight, greenhouse postemergence",,"postemergence, 150 g ai/ha, 21 days",,inhibition,51 ± 2.09%
CCn1cnc2c(Oc3ccc(/C=C/C(=O)c4ccc(NS(=O)(=O)c5ccccc5C)cc4)cc3)ncnc21,Tobacco mosaic virus,inactivation activity,plant in vivo,,,EC50,91.7 ± 1.8 µg/mL
C[C@H](NC(=O)Cc1cc(F)cc(F)c1)C(=O)N[C@@H]1C(=O)N(C)c2ccccc2-c2ccccc21,dengue virus type 2,"viral protein expression, immunoblot, refers to: NS4B and NS1",Huh-7.5.1,48 h,,lowest effective concentration,30 nM
COc1ccc(C2=[N+]([O-])c3ccccc3N3CCN=C23)cc1,Parabacteroides distasonis and Bacteroides spp.,bacterial growth,,,,MIC90,≤ 0.06 µg/mL
CCOC(=O)C1(Cc2ccccc2)Oc2ccccc2N(Cc2ccccc2)C1=O (stereo not drawn),Echinochloa crus-galli,"fresh weight, greenhouse postemergence",,"postemergence, 150 g ai/ha, 21 days",,inhibition,42.5 ± 0.87%
CCCCSC(SCCCC)c1ccc(OCCNS(=O)(=O)c2c(F)cccc2F)c(OC)c1,Tobacco mosaic virus,protective activity,plant in vivo,,,EC50,407.5 ± 2.6 µg/mL
CC[C@H](C)[C@H](NC(=O)[C@H](CCCNC(=N)N)NC(=O)[C@H](CO)NC(=O)[C@H](Cc1ccc(O)cc1)NC(=O)[C@@H](NC(=O)[C@@H](NC(=O)[C@H](C)NC(=O)CNC(=O)[C@H](CCCCN)NC(=O)[C@H](CCCCN)NC(=O)CCNC(=O)CCCCCNC(=O)[C@H](CCCNC(=N)N)NC(=O)CCCCCNC(=O)[C@H](CCCNC(=N)N)NC(=O)[C@H](CCCNC(=N)N)NC(=O)CCCCCNC(=O)[C@H](CCCNC(=N)N)NC(=O)[C@H](CCCNC(=N)N)NC(=O)CCCCCNC(=O)[C@H](CCCNC(=N)N)NC(=O)[C@H](CCCNC(=N)N)NC(=O)CCCCCNC(=O)[C@@H](N)CCCNC(=N)N)C(C)C)[C@@H](C)O)C(=O)N[C@@H](CO)C(=O)NCC(=O)N[C@@H](CCC(N)=O)C(=O)N[C@@H](Cc1ccc(O)cc1)C(=O)N[C@@H](CCCCN)C(=O)O,Escherichia coli,crystal violet,ATCC 25922,,,minimum biofilm inhibitory concentration,6 µM
OB(O)c1ccc(C(F)(F)F)s1,Staphylococcus aureus,,USA300 wild type,10 µM,relative to: untreated,growth relative to untreated,78.8% and 68% and 80.8% and 75.6% and 81.4% and 67%
[O-][N+]1=C(c2ccc(Cl)cc2)C2=NCCCN2c2ccccc21,Parabacteroides distasonis and Bacteroides spp.,bacterial growth,,,,MIC90,1 µg/mL
C[C@H]1O[C@@H](O[C@H]2CC[C@@]3(C)[C@H](C2)C[C@@H]2O[C@]24[C@@H]3C[C@@H](O)[C@]2(C)[C@@H](C3=CC(=O)OC3)CC[C@@]24O)[C@H](O)[C@H](O)[C@@H]1O[C@@H]1O[C@H](CO)[C@@H](O)[C@H](O)[C@H]1O,Oncopeltus fasciatus,,,"diet, concentration not given",,adult length,10.1 mm
CN(C(=O)c1ccn2ncc(-c3ccc(C(N)=O)cc3)c2c1)c1ccc(C#N)cn1,Cryptosporidium parvum,,"UGA1 Nluc, IFN-gamma knockout C57BL/6 mice, faeces","oral, 10 mg/kg daily, 120 h post infection, treatment days 3-9",higher means more parasites,faecal Nluc luminescence,49 a.u. and 124 a.u. and 72 a.u. and 81 a.u. and 426 a.u.
COc1ccccc1-c1n[nH]c2nc(N[C@H]3CC[C@H](NS(=O)(=O)CC(C)C)CC3)ncc12,Leishmania donovani,,"promastigotes, LdBOB CRK12 single knockout",,relative to: wild type,EC50 fold change,0.5
[O-][N+]1=C(c2ccsc2)C2=NCCCN2c2ccccc21,Parabacteroides distasonis and Bacteroides spp.,bacterial growth,,,,MIC50,0.25 µg/mL
CC[C@H](C)CCCCC(=O)N[C@@H](CCN)C(=O)N[C@H](C(=O)N[C@@H](CCN)C(=O)N[C@H]1CCNC(=O)[C@H]([C@@H](C)O)NC(=O)[C@H](CCN)NC(=O)[C@H](CCN)NC(=O)[C@H](CC(C)C)NC(=O)[C@@H](CC(C)C)NC(=O)[C@H](CCN)NC1=O)[C@@H](C)O,Escherichia coli,daily serial passaging,ATCC 8739,"highest sub-MIC, 47 days",relative to: initial MIC,MIC fold change,5.05
O=[N+]([O-])c1ccc(C2=[N+]([O-])c3ccccc3N3CCCN=C23)cc1,Parabacteroides distasonis and Bacteroides spp.,bacterial growth,,,,MIC90,≤ 0.06 µg/mL
Cc1ccc(N2CC3CC(C2)N3C)cc1C(=O)NC1(c2ccc3c4c(cccc24)C(=O)N3C)CC1,Human coronavirus NL63,viral replication,,10 nM,,inhibition,18.7%
Cc1ccc(S(=O)(=O)NCCOc2ccc(C(SC(C)C)SC(C)C)cc2)cc1,Tobacco mosaic virus,protective activity,plant in vivo,,,EC50,174 ± 2.1 µg/mL
COc1ccc(C2=[N+]([O-])c3ccccc3N3CCCN=C23)cc1,Prevotella spp.,bacterial growth,,,,MIC50,0.5 µg/mL
CCOC(=O)C1(Cc2ccc(C(F)(F)F)cc2)Oc2cc(F)ccc2N(Cc2ccc(C(F)(F)F)cc2)C1=O (stereo not drawn),Echinochloa crus-galli,"fresh weight, greenhouse postemergence",,"postemergence, 150 g ai/ha, 21 days",,inhibition,48.8 ± 0.58%
CC[C@H](C)[C@H](NC(=O)[C@H](C)NC(=O)CNC(=O)[C@H](C)NC(=O)[C@H](CCCCN)NC(=O)[C@H](CO)NC(=O)[C@H](C)NC(=O)[C@H](CCSC)NC(=O)CN)C(=O)N[C@@H](C)C(=O)NCC(=O)N[C@@H](CCCCN)C(=O)N[C@H](C(=O)N[C@@H](C)C(=O)N[C@@H](CCCCN)C(=O)N[C@H](C(=O)N[C@@H](C)C(=O)N[C@@H](CC(C)C)C(=O)N[C@@H](CCCCN)C(=O)N[C@@H](C)C(=O)N[C@@H](CC(C)C)C(N)=O)C(C)C)[C@@H](C)CC,Escherichia coli,,3538 nalidixic acid resistant,"Loewe additivity, together with: nalidixic acid",,combination index,1.01
NCCO.O=C(O)C(Cl)Cl,Eleusine indica,,,"15 mg/mL, 21 days, pre-emergence, greenhouse",,herbicidal inhibition,0%
Cc1cc(N2CCC(C#N)(C3(C)CC3)C2=O)cc(C(=O)NCc2cc(F)cc(-c3cnn(C)c3)c2)n1 (racemic),Plasmodium falciparum,parasite growth,compound-resistant Dd2-B2 bulk 1_Bulk_10e7_D4,,,IC50,62 nM
Cc1cc(C(=O)Nc2nc3cccc(C)c3n2[C@H]2CCCCN(C(=O)/C=C/CN(C)C)C2)ccn1,Trypanosoma brucei,"cell growth, Alamar Blue",2T1 overexpressing Tb927.3.2440,,relative to: parental 2T1,EC50 fold shift,0.61 fold and 0.92 fold
COc1cc(C(SC(C)C)SC(C)C)ccc1OCCNS(=O)(=O)c1ccc(Cl)cc1,Tobacco mosaic virus,protective activity,plant in vivo,,,EC50,250 ± 3.5 µg/mL
[O-][N+]1=C(c2ccc(Cl)cc2)C2=NCCCCN2c2ccccc21,Parabacteroides distasonis and Bacteroides spp.,bacterial growth,,,,MIC90,2 µg/mL
COc1cc(C(SC(C)C)SC(C)C)ccc1OCCNS(=O)(=O)c1cccc(Br)c1,Tobacco mosaic virus,inactivation activity,plant in vivo,,,EC50,771.6 ± 1.2 µg/mL
FC(F)(F)c1cccc(CNc2nc(NC3CCN(Cc4ccccc4)CC3)c3nc[nH]c3n2)c1,Cryptococcus neoformans,"RNA-seq, refers to: CNAG_06530",,"48 µg/mL, 3 h",relative to: untreated,mRNA fold change,1.06
CCOC(=O)C1(CC=C(C)C)Oc2cc(F)ccc2N(CC=C(C)C)C1=O (stereo not drawn),Eclipta prostrata,"fresh weight, greenhouse postemergence",,"postemergence, 150 g ai/ha, 21 days",,inhibition,51.9 ± 2.93%
CCCSC(SCCC)c1ccc(OCCNS(=O)(=O)c2cccc(Br)c2)c(OC)c1,Tobacco mosaic virus,curative activity,plant in vivo,,,EC50,322.1 ± 2.6 µg/mL
CCOC(=O)C1(Cc2ccc(-c3ccccc3)cc2)Oc2cc(F)ccc2N(Cc2ccc(-c3ccccc3)cc2)C1=O (stereo not drawn),Echinochloa crus-galli,"fresh weight, greenhouse postemergence",,"postemergence, 150 g ai/ha, 21 days",,inhibition,48.4 ± 1.07%
[O-][N+]1=C(c2ccccc2)C2=NCCCN2c2ncccc21,Prevotella spp.,bacterial growth,,,,MIC50,≤ 0.06 µg/mL

# Some of these lines once more:
SMILES,organism,assay,test system,conditions,how to read,measurement,value
FC(F)(F)c1cccc(CNc2nc(NC3CCN(Cc4ccccc4)CC3)c3nc[nH]c3n2)c1,Cryptococcus neoformans,"RNA-seq, refers to: CNAG_06530",,"48 µg/mL, 3 h",relative to: untreated,mRNA fold change,1.06
C[C@H]1O[C@@H](O[C@H]2CC[C@@]3(C)[C@H](C2)C[C@@H]2O[C@]24[C@@H]3C[C@@H](O)[C@]2(C)[C@@H](C3=CC(=O)OC3)CC[C@@]24O)[C@H](O)[C@H](O)[C@@H]1O[C@@H]1O[C@H](CO)[C@@H](O)[C@H](O)[C@H]1O,Oncopeltus fasciatus,,,"diet, concentration not given",,adult length,10.1 mm
CCCCSC(SCCCC)c1ccc(OCCNS(=O)(=O)c2c(F)cccc2F)c(OC)c1,Tobacco mosaic virus,protective activity,plant in vivo,,,EC50,407.5 ± 2.6 µg/mL
